Measurements of several laboratories.
A part holds a random share of what one study measured. Several values in a cell are separate wells, animals, samples, runs or records.
UniProt Q9BZL6, sequence (whole entry, looked up): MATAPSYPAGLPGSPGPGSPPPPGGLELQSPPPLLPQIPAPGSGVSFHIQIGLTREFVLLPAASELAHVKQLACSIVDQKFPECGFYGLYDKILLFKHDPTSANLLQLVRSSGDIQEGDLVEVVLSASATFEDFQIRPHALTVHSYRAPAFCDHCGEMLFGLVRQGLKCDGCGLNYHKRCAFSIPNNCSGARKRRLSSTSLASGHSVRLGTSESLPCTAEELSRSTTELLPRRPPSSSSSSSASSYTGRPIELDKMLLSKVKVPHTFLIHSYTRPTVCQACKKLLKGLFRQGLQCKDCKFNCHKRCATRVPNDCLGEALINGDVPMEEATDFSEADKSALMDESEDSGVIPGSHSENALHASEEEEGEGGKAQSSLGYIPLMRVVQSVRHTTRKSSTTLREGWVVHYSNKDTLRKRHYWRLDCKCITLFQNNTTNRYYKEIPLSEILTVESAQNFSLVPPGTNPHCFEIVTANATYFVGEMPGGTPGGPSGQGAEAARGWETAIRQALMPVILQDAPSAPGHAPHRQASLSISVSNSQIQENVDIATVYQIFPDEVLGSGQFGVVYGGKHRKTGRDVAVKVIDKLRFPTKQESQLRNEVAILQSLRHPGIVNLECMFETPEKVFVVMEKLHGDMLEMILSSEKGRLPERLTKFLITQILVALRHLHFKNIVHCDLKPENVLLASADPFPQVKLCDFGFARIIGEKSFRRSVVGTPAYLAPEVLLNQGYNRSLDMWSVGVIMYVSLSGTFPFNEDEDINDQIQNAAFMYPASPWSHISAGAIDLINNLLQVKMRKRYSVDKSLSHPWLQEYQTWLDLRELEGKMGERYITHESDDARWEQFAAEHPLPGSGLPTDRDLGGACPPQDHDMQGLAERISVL
UniProt P53778, sequence (whole entry, looked up): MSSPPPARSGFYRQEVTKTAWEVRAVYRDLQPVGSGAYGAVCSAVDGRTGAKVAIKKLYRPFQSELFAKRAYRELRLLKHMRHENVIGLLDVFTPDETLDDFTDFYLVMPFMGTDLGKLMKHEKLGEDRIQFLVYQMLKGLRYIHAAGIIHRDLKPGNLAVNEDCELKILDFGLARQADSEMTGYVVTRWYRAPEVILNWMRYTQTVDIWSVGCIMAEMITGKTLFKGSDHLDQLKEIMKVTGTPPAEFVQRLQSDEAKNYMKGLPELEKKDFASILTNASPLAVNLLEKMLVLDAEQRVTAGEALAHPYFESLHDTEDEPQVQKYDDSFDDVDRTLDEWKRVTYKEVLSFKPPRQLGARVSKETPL
UniProt O95819, sequence (whole entry, looked up): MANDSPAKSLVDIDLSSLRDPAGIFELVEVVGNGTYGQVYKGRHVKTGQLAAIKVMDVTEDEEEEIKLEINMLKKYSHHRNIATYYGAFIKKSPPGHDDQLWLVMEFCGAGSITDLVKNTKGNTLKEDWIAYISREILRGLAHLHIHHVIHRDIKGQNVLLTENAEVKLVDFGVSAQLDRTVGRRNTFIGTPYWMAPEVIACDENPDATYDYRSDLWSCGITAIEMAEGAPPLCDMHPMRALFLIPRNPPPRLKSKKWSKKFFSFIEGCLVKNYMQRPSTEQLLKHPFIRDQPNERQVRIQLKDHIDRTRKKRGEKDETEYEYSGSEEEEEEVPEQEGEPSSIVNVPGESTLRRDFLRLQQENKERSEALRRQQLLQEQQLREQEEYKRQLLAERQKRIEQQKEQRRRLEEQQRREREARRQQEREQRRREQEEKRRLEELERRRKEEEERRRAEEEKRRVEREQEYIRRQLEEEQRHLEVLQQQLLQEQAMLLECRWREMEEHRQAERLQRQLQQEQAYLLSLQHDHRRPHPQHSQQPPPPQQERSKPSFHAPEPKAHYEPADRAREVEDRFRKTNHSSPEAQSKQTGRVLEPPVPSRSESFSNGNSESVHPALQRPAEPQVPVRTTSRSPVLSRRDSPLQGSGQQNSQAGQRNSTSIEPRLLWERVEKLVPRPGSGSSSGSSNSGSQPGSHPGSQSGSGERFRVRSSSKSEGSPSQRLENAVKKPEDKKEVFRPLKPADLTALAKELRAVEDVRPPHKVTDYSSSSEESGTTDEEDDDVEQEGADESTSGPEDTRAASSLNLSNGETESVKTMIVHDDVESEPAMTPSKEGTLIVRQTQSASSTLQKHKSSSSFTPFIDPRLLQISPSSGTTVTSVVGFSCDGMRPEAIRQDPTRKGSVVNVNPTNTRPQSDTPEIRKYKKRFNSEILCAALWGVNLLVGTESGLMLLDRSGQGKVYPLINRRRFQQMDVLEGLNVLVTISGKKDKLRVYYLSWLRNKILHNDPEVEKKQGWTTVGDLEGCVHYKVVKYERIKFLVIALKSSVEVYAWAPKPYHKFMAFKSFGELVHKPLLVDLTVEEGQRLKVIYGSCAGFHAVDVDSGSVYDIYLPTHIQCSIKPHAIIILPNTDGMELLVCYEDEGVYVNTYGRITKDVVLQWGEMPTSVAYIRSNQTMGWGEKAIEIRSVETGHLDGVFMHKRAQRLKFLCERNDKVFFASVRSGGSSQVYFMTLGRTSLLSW
UniProt P57058, sequence (whole entry, looked up): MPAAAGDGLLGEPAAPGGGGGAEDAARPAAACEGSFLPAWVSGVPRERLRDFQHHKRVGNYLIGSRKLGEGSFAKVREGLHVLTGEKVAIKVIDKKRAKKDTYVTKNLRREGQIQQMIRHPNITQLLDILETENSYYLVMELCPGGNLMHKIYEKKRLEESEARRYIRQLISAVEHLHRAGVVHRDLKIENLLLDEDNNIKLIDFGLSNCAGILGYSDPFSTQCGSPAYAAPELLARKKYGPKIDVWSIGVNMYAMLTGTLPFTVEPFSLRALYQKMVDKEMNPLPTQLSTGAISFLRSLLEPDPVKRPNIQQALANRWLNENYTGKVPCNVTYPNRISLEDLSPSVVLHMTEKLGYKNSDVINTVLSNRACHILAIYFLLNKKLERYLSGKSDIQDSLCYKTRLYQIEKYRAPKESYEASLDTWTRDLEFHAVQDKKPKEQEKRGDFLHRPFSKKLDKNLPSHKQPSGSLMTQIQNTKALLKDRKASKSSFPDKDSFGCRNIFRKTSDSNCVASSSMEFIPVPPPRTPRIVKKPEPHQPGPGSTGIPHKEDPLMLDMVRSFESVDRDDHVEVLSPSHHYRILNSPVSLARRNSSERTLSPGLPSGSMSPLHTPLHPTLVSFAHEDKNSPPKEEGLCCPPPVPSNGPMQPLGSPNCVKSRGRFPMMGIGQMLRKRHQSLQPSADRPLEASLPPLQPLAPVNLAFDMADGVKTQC
UniProt P04629, sequence (whole entry, looked up): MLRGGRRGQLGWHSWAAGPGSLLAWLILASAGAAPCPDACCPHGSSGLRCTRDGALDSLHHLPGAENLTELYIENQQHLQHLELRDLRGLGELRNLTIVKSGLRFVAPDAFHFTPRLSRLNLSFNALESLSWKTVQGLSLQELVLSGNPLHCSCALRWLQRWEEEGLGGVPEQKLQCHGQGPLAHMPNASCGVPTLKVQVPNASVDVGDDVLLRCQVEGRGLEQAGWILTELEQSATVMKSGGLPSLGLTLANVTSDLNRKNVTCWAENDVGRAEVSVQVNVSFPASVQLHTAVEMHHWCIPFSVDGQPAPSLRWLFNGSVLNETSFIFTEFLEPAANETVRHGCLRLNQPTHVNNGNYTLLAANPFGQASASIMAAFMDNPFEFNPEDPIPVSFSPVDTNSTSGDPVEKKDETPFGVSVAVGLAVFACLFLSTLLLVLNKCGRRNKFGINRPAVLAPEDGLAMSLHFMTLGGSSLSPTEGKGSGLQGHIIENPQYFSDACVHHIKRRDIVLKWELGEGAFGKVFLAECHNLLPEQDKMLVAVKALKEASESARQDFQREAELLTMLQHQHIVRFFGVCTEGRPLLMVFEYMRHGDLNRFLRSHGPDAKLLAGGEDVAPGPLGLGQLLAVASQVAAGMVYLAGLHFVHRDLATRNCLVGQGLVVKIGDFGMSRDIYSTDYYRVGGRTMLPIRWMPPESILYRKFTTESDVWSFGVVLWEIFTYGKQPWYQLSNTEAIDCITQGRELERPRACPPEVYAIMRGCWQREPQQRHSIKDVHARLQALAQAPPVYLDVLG
UniProt Q9P1W9, sequence (whole entry, looked up): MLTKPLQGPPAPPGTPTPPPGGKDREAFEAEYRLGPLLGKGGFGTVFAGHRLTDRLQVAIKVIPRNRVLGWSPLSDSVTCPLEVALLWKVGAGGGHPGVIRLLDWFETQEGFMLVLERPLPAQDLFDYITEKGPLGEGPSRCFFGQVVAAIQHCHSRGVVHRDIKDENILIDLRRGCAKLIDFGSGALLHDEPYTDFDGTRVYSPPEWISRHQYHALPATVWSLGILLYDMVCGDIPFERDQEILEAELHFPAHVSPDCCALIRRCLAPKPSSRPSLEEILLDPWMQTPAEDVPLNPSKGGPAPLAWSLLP

Sample 1
Compound: O=C(Nc1ccc(Oc2ccc(F)cc2)cc1)N1CCc2ncccc2[C@H]1c1ccc(F)cc1
Read-out: cell-free assay
Method: competition with immobilised ligand
Concentration: 1 µM
The remaining binding was 88% (WNK2 (Homo sapiens, UniProt Q9Y3S1)).
PIM2 (Homo sapiens, UniProt Q9P1W9) — remaining binding: 93%.
It gave 100% for remaining binding (Tyrosine-protein kinase JAK2, JH1 (JAK2, Homo sapiens, UniProt O60674)).
The remaining binding was 91% (EPHA3 (Homo sapiens, UniProt P29320)).
PAK6 (Homo sapiens, UniProt Q9NQU5) — remaining binding: 100%.
The remaining binding was 100% (PIK3CA (Homo sapiens, UniProt P42336, C420R)).
It gave 94% for remaining binding (LCK (Homo sapiens, UniProt P06239)).
MAP4K4 (Homo sapiens, UniProt O95819) — remaining binding: 100%.
OXSR1 (Homo sapiens, UniProt O95747) — remaining binding: 90%.
CLK3 (Homo sapiens, UniProt P49761) — remaining binding: 82%.
It gave 82% for remaining binding (MAPK10 (Homo sapiens, UniProt P53779)).
The remaining binding was 96% (ITK (Homo sapiens, UniProt Q08881)).
The remaining binding was 82% (MARK2 (Homo sapiens, UniProt Q7KZI7)).
MAPK12 (Homo sapiens, UniProt P53778) — remaining binding: 94%.
PRKD2 (Homo sapiens, UniProt Q9BZL6) — remaining binding: 100%.
It gave 85% for remaining binding (NTRK1 (Homo sapiens, UniProt P04629)).
Tyrosine-protein kinase ABL1, non-phosphorylated (ABL1, Homo sapiens, UniProt P00519, Q252H) — remaining binding: 90%.
CDK3 (Homo sapiens, UniProt Q00526) — remaining binding: 93%.
It gave 100% for remaining binding (EGFR (Homo sapiens, UniProt P00533)).
It gave 85% for remaining binding (TIE1 (Homo sapiens, UniProt P35590)).
For MAPK15 (Homo sapiens, UniProt Q8TD08): remaining binding read 94%.
It gave 94% for remaining binding (PAK4 (Homo sapiens, UniProt O96013)).
HUNK (Homo sapiens, UniProt P57058) — remaining binding: 99%.
For CAMKK1 (Homo sapiens, UniProt Q8N5S9): remaining binding read 99%.
It gave 88% for remaining binding (PDPK1 (Homo sapiens, UniProt O15530)).

Sample 2
Target: Calcium/calmodulin-dependent protein kinase type II subunit alpha (CAMK2A, Homo sapiens, UniProt Q9UQM7)
UniProt Q9UQM7, sequence (whole entry, looked up): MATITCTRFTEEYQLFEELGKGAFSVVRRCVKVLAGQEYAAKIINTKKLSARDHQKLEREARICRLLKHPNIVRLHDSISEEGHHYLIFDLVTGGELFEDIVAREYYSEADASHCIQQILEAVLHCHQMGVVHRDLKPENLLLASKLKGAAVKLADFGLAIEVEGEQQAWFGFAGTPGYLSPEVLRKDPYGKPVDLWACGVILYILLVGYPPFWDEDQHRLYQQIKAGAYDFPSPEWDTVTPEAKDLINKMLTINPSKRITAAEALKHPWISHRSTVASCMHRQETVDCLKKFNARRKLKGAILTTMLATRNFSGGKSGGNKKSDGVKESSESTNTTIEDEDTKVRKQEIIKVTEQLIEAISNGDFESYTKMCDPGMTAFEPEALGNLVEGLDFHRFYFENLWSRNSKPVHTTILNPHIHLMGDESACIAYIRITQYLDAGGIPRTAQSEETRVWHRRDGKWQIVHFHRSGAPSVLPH
Read-out: enzyme activity
Mode: inhibitor
Concentration: 10 µM
The inhibition of O=C(O)c1ccccc1 is reported as -5%.
For CCN(CC)CCOC(=O)C(Cc1cccc2ccccc12)CC1CCCO1 (stereo not shown), the inhibition was -2%.
C[C@H](CCC(=O)O)[C@H]1CC[C@H]2[C@@H]3C=CC4=CC(=O)CC[C@]4(C)[C@H]3CC[C@]12C gave an inhibition of -15%.
For CCCCCC/C=C\CCCCCCCc1cccc(O)c1C(=O)O, the inhibition was -53%.
Cc1ccc(S(=O)(=O)NC(=O)NN2CCCCCC2)cc1 gave an inhibition of -11%.
With Cc1c(O)c(=O)ccn1C the inhibition was -3%.
NC[C@H]1O[C@H](O[C@H]2[C@H](O)[C@@H](O[C@H]3O[C@H](CO)[C@@H](O)[C@H](N)[C@H]3O)[C@H](N)C[C@@H]2N)[C@H](N)C[C@@H]1O has an inhibition of 13%.
COc1ccc(CCC(=O)c2c(O)cc(O[C@@H]3O[C@H](CO)[C@@H](O)[C@H](O)[C@H]3O[C@@H]3O[C@@H](C)[C@H](O)[C@@H](O)[C@H]3O)cc2O)cc1O gave an inhibition of 9%.
For O=C(O[C@@H]1Cc2c(O)cc(O)cc2O[C@@H]1c1cc(O)c(O)c(O)c1)c1cc(O)c(O)c(O)c1, the inhibition was -46%.
The inhibition of CSc1nc2cc(Cl)c(Oc3cccc(Cl)c3Cl)cc2[nH]1 is reported as -6%.
The inhibition of COc1cc(/C=C/c2cc(O)cc(O)c2)ccc1O is reported as -23%.
NS(=O)(=O)c1cc(Cl)c(Cl)c(S(N)(=O)=O)c1 has an inhibition of -3%.

Sample 3
Cell line: A-375
Concentration: 100 µM
Time: 36 h
For OC[C@H]1O[C@@H](n2cnc3c(O)ncnc32)[C@H](O)[C@@H]1O, the viability was 88% and 113%.
For CCOC(N)=O, the viability was 119%.
With COc1cc(C(C)=O)ccc1OCCCN1CCC(c2noc3cc(F)ccc23)CC1 the viability was 94.4%.
For COc1cc2c(cc1OC)CC(=O)N(CCCN(C)C[C@H]1Cc3cc(OC)c(OC)cc31)CC2, the viability was 108%.
With Cc1cccc(Nc2cc(Cl)nc(SCC(=O)O)n2)c1C the viability was 108%.
With CO/N=C(\C(=O)N[C@@H]1C(=O)N2C(C(=O)O)=C(C[N+]3(C)CCCC3)CS[C@H]12)c1csc(N)n1 the viability was 116%.
CCN(CC)C(=S)SSC(=S)N(CC)CC gave a viability of -0.461%.
With CC(=O)[C@@]1(O)CC[C@H]2[C@@H]3CCC4=CC(=O)CC[C@]4(C)[C@H]3CC[C@@]21C the viability was 86.7%.
With N[C@H](Cc1ccccc1)C(=O)O the viability was 118%.

Sample 4
SMILES: Cc1nc(Nc2ncc(C(=O)Nc3c(C)cccc3Cl)s2)cc(N2CCN(CCO)CC2)n1
Mode: inhibitor
It gave under 50% for inhibition (MAP2K6 (Homo sapiens, UniProt P52564); 10 µM).
NUAK2 (Homo sapiens, UniProt Q9H093); 1 µM — inhibition: under 50%.
CIT (Homo sapiens, UniProt O14578); 10 µM — inhibition: under 50%.
It gave under 50% for inhibition (COQ8B (Homo sapiens, UniProt Q96D53); 10 µM).
It gave under 50% for inhibition (PRKD2 (Homo sapiens, UniProt Q9BZL6); 10 µM).
The inhibition was under 50% (TLK2 (Homo sapiens, UniProt Q86UE8); 10 µM).
For MAP4K4 (Homo sapiens, UniProt O95819); 10 µM: inhibition read 77%.
It gave under 50% for inhibition (PHKG2 (Homo sapiens, UniProt P15735); 10 µM).
The inhibition was 84% (TGFBR2 (Homo sapiens, UniProt P37173); 10 µM).
For MAPK12 (Homo sapiens, UniProt P53778); 10 µM: inhibition read under 50%.

Single results of other studies
Target: Dual serine/threonine and tyrosine protein kinase (DSTYK, Homo sapiens, UniProt Q6XUX3)
Read-out: cell-free assay
Concentration: 0.5 µM
Sequence (Q6XUX3 1-929, as in one of the studies): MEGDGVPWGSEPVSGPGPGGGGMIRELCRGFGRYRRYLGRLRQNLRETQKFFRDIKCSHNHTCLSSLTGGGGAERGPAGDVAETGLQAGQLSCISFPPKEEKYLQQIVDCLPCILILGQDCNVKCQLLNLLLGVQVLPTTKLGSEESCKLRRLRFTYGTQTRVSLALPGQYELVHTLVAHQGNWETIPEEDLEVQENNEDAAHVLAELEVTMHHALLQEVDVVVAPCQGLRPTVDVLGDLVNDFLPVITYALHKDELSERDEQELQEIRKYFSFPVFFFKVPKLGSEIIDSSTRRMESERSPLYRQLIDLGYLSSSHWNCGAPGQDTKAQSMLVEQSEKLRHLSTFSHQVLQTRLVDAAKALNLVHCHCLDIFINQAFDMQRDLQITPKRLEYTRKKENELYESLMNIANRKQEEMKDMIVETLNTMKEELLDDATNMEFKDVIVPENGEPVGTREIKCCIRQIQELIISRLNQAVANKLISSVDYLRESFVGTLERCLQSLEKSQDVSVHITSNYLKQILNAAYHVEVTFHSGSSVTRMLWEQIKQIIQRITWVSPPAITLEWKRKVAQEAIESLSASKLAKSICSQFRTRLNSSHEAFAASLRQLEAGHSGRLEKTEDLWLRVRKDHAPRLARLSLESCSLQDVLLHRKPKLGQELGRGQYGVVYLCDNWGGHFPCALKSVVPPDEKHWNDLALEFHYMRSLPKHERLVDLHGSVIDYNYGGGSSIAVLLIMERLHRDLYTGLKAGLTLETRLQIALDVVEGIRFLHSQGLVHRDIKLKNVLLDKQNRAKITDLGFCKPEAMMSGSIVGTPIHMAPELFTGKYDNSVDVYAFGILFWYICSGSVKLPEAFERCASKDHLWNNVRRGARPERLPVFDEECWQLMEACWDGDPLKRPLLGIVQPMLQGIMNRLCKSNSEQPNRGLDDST
CCN(CC)CCNC(=O)c1c(C)[nH]c(/C=C2\C(=O)Nc3ccc(F)cc32)c1C has a remaining signal of 111%.
For Cc1ccc(NC(=O)c2ccc(CN3CCN(C)CC3)cc2)cc1Nc1nc(-c2cccnc2)cs1, the remaining signal was 92.4%.
